Results gathered from unrelated publications.
Every numbered part comes from another study and shows a few of its results, in no order.
UniProt P15056, sequence (whole entry, looked up): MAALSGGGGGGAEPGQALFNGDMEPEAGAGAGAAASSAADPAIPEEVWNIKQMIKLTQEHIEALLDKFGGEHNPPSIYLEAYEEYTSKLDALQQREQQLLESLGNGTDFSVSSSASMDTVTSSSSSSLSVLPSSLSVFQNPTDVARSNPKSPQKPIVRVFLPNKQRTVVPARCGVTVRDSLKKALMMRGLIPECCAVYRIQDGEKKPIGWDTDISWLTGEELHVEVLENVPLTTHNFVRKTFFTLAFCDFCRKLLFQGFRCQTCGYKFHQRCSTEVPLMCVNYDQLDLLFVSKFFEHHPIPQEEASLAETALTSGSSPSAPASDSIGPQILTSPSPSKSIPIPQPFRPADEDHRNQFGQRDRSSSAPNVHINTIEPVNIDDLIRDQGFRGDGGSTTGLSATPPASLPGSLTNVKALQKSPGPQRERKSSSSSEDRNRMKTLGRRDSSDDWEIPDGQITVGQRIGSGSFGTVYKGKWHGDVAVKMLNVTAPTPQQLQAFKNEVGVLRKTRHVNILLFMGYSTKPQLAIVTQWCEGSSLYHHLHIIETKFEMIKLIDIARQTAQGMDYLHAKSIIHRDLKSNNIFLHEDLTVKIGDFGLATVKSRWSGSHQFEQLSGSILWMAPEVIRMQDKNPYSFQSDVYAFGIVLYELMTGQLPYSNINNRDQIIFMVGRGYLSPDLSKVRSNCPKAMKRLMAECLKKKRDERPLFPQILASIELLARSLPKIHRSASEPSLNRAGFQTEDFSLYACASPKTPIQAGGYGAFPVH
UniProt P35368, sequence (whole entry, looked up): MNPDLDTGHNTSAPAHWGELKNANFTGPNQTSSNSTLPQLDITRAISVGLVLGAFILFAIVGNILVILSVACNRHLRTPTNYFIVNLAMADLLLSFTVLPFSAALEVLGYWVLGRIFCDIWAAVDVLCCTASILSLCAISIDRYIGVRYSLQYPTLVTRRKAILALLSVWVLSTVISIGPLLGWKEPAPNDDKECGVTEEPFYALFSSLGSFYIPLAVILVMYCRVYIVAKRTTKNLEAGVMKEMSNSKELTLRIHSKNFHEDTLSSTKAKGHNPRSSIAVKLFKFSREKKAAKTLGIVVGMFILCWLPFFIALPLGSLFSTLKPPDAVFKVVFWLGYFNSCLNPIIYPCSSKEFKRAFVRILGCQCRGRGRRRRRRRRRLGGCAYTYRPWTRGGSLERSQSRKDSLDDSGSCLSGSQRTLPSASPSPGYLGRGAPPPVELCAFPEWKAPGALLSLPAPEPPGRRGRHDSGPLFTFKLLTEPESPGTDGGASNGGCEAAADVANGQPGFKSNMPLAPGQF

Set 1
Target: Histone acetyltransferase KAT6A, winged helix 2, GST fusion (KAT6A, Homo sapiens, UniProt Q92794, residues 85-181)
Technique: protein binding microarray
Form: double-stranded DNA, one strand shown
Medium: in vitro
Concentration: not given
Setting: 8-mer, flanks averaged, mean of 2 arrays, mostly near background
Baseline: not given
Direction: higher = stronger binding
Residues (chain): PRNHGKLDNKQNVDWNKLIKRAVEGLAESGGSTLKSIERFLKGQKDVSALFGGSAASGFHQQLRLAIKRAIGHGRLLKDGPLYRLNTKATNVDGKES
| Oligonucleotide | E-score |
| --- | --- |
| GGTCGTAC | -0.0818 |
| CTTTTTGC | 0.193 |
| CCAAGGGC | 0.11 |
| ACTAGCTG | -0.0898 |
| CTCCTATC | -0.059 |
| ACGCGAAG | -0.0541 |
| GGTTCATA | -0.0554 |
| TCAACAAA | 0.0166 |

Set 2
Target: RING finger protein unkempt homolog, zinc fingers 1-6, GST-SBP tag (UNK, Homo sapiens, UniProt Q9C0B0, residues 30-357)
UniProt Q9C0B0, sequence (30-357, looked up): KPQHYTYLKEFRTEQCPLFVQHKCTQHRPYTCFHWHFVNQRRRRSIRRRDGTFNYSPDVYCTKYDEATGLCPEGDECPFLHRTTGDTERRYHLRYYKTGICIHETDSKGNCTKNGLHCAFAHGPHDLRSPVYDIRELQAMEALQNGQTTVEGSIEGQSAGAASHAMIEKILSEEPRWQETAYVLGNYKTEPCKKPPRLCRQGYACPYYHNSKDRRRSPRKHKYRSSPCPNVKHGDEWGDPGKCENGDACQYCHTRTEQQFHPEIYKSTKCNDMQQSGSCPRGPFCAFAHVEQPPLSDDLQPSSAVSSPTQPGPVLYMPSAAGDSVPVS
Technique: RNA Bind-n-Seq
Form: RNA
Medium: in vitro
Concentration: not given
Setting: RNA with constant flanks, human-mouse chimeric sites, ends assumed
Baseline: input RNA pool
Direction: higher = stronger binding
Constant ends, left off below: GGGAGUUCUACAGUCCGACGAUC … CAACAGAGGAUUGAGCAUCA
| Oligonucleotide | bound/input enrichment [ratio] |
| --- | --- |
| UUUCUACUGCAGCAGACGAUGCUAAGAAUUAAGGAUCCUAAGAAGUCCCUGGAUUUUUAUACUAGAGUUCUUGGACUGACCCUCCUGCAGAAGCUUGACUUCCCUGCUAUGAAGUUCUCG | 0.401 |
| AAGGUGAUGACUAUGUUUGUCCAACGACAGGUAUUUUCGGAGAGCAAAGAUGAGAUUGCGUUAGUCCUCUAUGGCACAGAUGGCACUGACAAUCCCCUUGCUGGCAAGGACCAGUAUCAG | 0.168 |
| GGGGAGAAACCUUAUGAAUGCGUUCAGUGUGGGAAAUCCUACAGUCAGAGCUCAAACCUCUUCAGACAUCAGAGACGACACAAUGCAGAAAAACUUUUGAAUGUUGUGAAGGUUUAAGAA | 0.193 |
| GGGGAGAAACCUUACGAGUGUGUGCAGUGUGGGAAAUCGUAUAGUCAAAGCUCAAAUCUCUUCAGACAUCAGAGACGACACAAUGCAGAAAAACUUUUGAAUGUUGUGAAGGUUUAAGAA | 0.609 |
| ACUCAGAGAUCCACCUCCCAAAGUGCUGGGAGUAAAGUCUGAUAUUAUCAAUUCUCCUUGAUGGAUAUAUAUUUUUUUUAAUAUGAAUCUUCCUGUUCGUCCAGGGAAGAAAGAUUUGUU | 0.515 |
| GCCACCAGAUCCCAGAAACAUGACCCUUGCAGCCUAUAAAGAGAAGAUGAAGGAGCUCCCGCUGGUGUCCUUGUUCUGCUCUUGCUUCCUGGCCGAUCCCCUGAAUAAGUCGUCCUACAA | 0.195 |
| GAUCCACAGUGGUCUGAGGAGCAACUCAUUGCUGCAAAAUUCUGUUUUGCUGGCCUUGUUAUAGGGCAGACUGAAGUGGAUAUCAUGAGUCAUGCUACACAAGCUAUUUUUGAAAUUCUG | 0.155 |
| UAAGUCCUGUGCCAGCACUUCGCUCAUAAAGUUUUAAAUUCUGGACCAAUAGUGUUUGUUUCCUGAUUUUUGUAUUCAAUACUUUGCCUAGUAUGUAACUCACUCUUACUGAUAAUAAAA | 1.02 |

Mixed results
| SMILES | target | test | setting | how to read | endpoint | value |
| --- | --- | --- | --- | --- | --- | --- |
| Nc1nccc(-c2c(-c3ccc(F)cc3)ncn2C2CCNCC2)n1 | Serine/threonine-protein kinase B-raf (BRAF, Homo sapiens, UniProt P15056) | enzyme activity, inhibitor | 0.5 µM | baseline: control | remaining activity | 103% |
| COc1cc(-c2cn(C3CCc4ccccc4N(CC(F)(F)F)C3=O)nn2)ccc1-n1ccc(C)n1 (stereo not drawn) | Alpha-1B adrenergic receptor (ADRA1B, Homo sapiens, UniProt P35368) | binding, radioligand binding | – | – | Ki | > 10 µM |

A few entries again (set 2):
| Oligonucleotide | bound/input enrichment [ratio] |
| --- | --- |
| GGGGAGAAACCUUAUGAAUGCGUUCAGUGUGGGAAAUCCUACAGUCAGAGCUCAAACCUCUUCAGACAUCAGAGACGACACAAUGCAGAAAAACUUUUGAAUGUUGUGAAGGUUUAAGAA | 0.193 |
| GGGGAGAAACCUUACGAGUGUGUGCAGUGUGGGAAAUCGUAUAGUCAAAGCUCAAAUCUCUUCAGACAUCAGAGACGACACAAUGCAGAAAAACUUUUGAAUGUUGUGAAGGUUUAAGAA | 0.609 |
| ACUCAGAGAUCCACCUCCCAAAGUGCUGGGAGUAAAGUCUGAUAUUAUCAAUUCUCCUUGAUGGAUAUAUAUUUUUUUUAAUAUGAAUCUUCCUGUUCGUCCAGGGAAGAAAGAUUUGUU | 0.515 |
